Results collected from several papers.
Protocols differ between the studies behind these lines. ± gives the spread as reported.

Compound | cell line | assay | system | conditions | how to read | measurement | value
O=C1CCP(=S)(c2ccccc2)CC1 | HaCaT | annexin V/PI flow cytometry |  | IC50, 72 h |  | necrotic cells | 0.1%
CC(C)=CCc1c(O)cc(O)cc1-c1cc2ccc(O)c(CC=C(C)C)c2o1 | MCF7 | cell growth, MTT |  | 25 µg/mL, 48 h |  | cell survival | 69.58 ± 0.62%
CC(C)N1CCC(NC2CCN(c3cccc(-c4cc5cc(F)ccc5[nH]4)c3)CC2)CC1 | PC-3 |  |  |  |  | CC50 | 5.93 µM
Nc1ncc(-c2nc(N3CCOCC3)nc(N3CCOCC3)n2)c(C(F)F)n1 | TT |  |  | 72 h |  | GI50 | 0.331 µM
Oc1cc(O)cc(-c2cc3ccc(O)cc3o2)c1 | MCF7 | cell growth, MTT |  | 1.8 µg/mL, 48 h |  | cell survival | 86.04 ± 0.41%
COc1cc(CCC[P+](c2ccccc2)(c2ccccc2)c2ccccc2)c(OC)c2c1OCO2.[I-] | SNB-19 | SRB |  |  |  | LC50 | -4.38 log M
C/C=C(/C)C(=O)O[C@H]1C(C)=C2[C@H]([C@@H]1OC(=O)CCCCCCC)[C@@](C)(OC(C)=O)C[C@H](OC(=O)CCC)[C@@]1(O)[C@H]2OC(=O)[C@@]1(C)O | HEK-293T | RNA-seq GSEA, measured: Hallmark cholesterol homeostasis |  | 500 nM, 6 h | direction not given | normalized enrichment score | 2.13
COc1c(C)c2c(c(O)c1C/C=C(\C)CCC(=O)O)C(=O)OC2 | SK-HEP1 | cell proliferation | liver cancer |  |  | IC50 | 0.302 µM
Nc1ncnc2c1ncn2[C@@H]1O[C@@H]2COP(=O)(O)O[C@H]3[C@@H](O)[C@H](n4cnc5c(=O)[nH]cnc54)O[C@@H]3COP(=O)(O)O[C@H]2[C@H]1O | HFF-1 | RNA sequencing, measured: Interleukin-10 signaling |  | upregulated pathway | reference: Zika virus alone | pathway fold enrichment | 17.1
COc1c(CCC[P+](c2ccccc2)(c2ccccc2)c2ccccc2)cc2c(c1OC)OCO2.[I-] | BT-549 | SRB |  |  |  | GI50 | -5.91 log M
CN1CCN(C2(CNC3CCN(c4cccc(-c5cc6cc(F)ccc6[nH]5)c4)CC3)CCC2)CC1 | 786-0 |  |  |  |  | GI50 | 1.41 µM
CN1CCN(S(=O)(=O)c2cc([N+](=O)[O-])ccc2N(CCOS(C)(=O)=O)CCOS(C)(=O)=O)CC1 | sample C B-ALL PDX cells | cell viability | ex vivo | 48 h, together with: AKR1C3 inhibitor | reference: with inhibitor over alone | IC50 fold change | 87.4
COc1cnc(OC)n2nc(NS(=O)(=O)c3c(OCC(F)F)cccc3C(F)(F)F)nc12 | HEK293T | cytotoxicity, CCK-8 |  | 3.13 µM, 72 h |  | inhibition | 0%
C[C@H]1[C@H](C)CC[C@]2(C(=O)O)CC[C@]3(C)C(=CC[C@@H]4[C@@]5(C)CC[C@H](O)C(C)(C)[C@@H]5CC[C@]43C)[C@H]12 | 3T3 | cell growth, MTT |  | 100 µg/mL, 48 h |  | cell survival | 31.6 ± 0.51%

A few entries again:
Compound | cell line | assay | system | conditions | how to read | measurement | value
COc1cc(CCC[P+](c2ccccc2)(c2ccccc2)c2ccccc2)c(OC)c2c1OCO2.[I-] | SNB-19 | SRB |  |  |  | LC50 | -4.38 log M
